Assay results pooled from the literature.
Compare with care: the assays were run in different laboratories. Several values in a cell are separate wells, animals, samples, runs or records. ± marks the error that the study gave.
slo: slo (Streptococcus pyogenes, UniProt P0C0I3)
Chain of UniProt P0C0I3 (whole entry, looked up): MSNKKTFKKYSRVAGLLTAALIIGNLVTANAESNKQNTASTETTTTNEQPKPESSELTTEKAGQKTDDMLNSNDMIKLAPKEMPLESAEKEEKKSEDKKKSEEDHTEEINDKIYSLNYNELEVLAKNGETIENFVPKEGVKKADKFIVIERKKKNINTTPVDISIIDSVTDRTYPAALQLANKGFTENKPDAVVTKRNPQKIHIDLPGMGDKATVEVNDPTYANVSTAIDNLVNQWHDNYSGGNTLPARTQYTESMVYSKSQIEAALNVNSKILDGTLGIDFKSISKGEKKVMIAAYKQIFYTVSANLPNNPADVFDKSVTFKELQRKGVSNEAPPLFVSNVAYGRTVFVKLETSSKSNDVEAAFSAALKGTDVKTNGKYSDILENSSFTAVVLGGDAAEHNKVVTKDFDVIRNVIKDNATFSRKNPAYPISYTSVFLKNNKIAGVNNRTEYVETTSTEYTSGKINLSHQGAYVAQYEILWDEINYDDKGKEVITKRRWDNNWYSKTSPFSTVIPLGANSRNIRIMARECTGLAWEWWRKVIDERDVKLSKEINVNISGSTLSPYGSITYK
SLC6A4: Sodium-dependent serotonin transporter (SLC6A4, Homo sapiens, UniProt P31645)
Chain of UniProt P34972 (whole entry, unmodified, looked up): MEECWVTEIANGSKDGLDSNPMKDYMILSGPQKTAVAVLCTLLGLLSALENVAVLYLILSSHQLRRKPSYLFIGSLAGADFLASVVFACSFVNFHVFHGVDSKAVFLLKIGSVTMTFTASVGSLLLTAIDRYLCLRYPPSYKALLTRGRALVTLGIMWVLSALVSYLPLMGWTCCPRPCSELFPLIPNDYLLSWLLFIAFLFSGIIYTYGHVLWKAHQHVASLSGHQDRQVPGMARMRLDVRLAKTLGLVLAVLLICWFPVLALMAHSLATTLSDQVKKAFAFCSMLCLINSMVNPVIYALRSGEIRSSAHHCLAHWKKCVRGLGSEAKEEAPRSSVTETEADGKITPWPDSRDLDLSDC
Chain of UniProt P21554 (whole entry, looked up): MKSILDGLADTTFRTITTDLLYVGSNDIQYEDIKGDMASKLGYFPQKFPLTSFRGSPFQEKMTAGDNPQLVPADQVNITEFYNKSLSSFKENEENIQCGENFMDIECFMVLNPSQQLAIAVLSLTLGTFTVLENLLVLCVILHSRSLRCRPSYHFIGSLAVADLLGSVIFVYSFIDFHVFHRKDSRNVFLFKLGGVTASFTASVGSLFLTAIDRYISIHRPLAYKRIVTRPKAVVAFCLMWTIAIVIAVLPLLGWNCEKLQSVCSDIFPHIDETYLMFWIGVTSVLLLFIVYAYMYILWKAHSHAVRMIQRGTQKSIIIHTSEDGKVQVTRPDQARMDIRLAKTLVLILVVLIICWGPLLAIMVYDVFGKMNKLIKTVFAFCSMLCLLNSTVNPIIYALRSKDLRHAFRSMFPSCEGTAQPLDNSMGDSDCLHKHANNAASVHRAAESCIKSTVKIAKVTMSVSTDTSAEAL
Chain of UniProt P40337 (whole entry, looked up): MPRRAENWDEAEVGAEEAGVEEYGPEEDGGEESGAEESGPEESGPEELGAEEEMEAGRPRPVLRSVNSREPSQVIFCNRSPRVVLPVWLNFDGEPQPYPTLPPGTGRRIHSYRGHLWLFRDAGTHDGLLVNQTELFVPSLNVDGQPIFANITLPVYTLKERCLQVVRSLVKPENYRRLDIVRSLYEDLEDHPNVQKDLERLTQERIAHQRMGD
Chain of UniProt Q9Y5X5 (whole entry, looked up): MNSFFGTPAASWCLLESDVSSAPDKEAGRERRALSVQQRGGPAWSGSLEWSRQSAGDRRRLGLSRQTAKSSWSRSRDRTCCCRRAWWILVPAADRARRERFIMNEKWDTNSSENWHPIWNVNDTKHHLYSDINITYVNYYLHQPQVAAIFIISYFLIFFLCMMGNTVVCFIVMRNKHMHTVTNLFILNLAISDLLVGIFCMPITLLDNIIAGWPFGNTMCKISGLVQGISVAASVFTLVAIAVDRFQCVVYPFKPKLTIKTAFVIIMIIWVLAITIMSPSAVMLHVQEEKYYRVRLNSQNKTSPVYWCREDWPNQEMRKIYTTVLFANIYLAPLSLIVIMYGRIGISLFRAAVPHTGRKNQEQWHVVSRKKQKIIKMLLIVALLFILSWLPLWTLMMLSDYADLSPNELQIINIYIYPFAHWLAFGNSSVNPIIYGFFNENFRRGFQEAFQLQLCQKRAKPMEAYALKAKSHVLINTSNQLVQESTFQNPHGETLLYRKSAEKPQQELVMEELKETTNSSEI
Chain of UniProt P17706 (whole entry, looked up): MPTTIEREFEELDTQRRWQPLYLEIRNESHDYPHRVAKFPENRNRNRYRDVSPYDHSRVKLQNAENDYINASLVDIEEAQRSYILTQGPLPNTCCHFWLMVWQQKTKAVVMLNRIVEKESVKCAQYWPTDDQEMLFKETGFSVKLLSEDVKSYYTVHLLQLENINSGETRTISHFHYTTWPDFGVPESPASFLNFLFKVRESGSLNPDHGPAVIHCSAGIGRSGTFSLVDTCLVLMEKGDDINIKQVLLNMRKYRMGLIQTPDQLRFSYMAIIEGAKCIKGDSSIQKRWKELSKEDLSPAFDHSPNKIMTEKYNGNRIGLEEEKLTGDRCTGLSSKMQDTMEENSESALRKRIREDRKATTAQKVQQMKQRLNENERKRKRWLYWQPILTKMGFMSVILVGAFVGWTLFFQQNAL
Chain of UniProt P23977 (whole entry, looked up): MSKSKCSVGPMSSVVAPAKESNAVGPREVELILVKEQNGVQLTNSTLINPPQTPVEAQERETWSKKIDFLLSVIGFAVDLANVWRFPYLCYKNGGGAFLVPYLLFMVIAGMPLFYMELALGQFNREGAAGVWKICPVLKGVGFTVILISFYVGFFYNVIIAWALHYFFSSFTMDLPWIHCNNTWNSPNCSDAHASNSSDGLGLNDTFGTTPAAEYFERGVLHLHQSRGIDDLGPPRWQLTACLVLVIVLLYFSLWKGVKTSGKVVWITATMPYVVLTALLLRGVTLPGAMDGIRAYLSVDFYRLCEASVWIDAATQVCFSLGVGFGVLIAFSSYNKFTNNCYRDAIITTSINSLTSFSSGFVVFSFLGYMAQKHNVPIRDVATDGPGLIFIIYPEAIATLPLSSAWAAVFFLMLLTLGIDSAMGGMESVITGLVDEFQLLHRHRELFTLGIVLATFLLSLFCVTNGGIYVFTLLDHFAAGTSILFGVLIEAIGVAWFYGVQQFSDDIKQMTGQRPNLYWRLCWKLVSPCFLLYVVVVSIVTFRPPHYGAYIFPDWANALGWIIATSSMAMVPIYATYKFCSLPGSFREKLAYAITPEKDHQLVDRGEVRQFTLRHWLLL
Chain of UniProt P05177 (whole entry, looked up): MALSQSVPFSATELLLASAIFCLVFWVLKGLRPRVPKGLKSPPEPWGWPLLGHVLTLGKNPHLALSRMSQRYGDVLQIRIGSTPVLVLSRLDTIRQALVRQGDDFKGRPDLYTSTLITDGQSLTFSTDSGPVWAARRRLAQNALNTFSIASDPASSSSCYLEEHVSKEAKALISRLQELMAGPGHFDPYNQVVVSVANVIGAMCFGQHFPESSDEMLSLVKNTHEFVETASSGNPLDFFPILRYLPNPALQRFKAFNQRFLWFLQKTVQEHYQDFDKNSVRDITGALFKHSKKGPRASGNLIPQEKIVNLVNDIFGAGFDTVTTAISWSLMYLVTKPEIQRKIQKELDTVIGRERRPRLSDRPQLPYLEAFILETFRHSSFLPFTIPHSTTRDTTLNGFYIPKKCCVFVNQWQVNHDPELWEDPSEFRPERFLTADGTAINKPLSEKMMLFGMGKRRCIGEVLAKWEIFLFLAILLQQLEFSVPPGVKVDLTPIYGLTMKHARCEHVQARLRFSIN

| Structure (SMILES) | tested on | assay | system | setting | scale | quantity | value |
| --- | --- | --- | --- | --- | --- | --- | --- |
| C[C@@](O)(C(F)F)[C@H](NC(=O)c1ccc(C#CC#CC2CC2)cc1)C(=O)NO | – | – | CD-1 mouse | oral, 40 mg/kg, fasted | baseline: AUC oral over AUC IV | oral bioavailability | ~73% and 73% |
| CCCCCCCCC(=O)NCc1ccc(O)c(OC)c1 | mouse mAb 1-F12 | antibody binding, indirect competitive ELISA | – | added: coating antigen 6-OVA | – | IC50 | 0.439 µg/mL |
| N=C(N)NCCCCC(=O)NCC1(Nc2ccccc2)CCN(Cc2ccccc2)CC1 | Neuropeptide FF receptor 2 (Homo sapiens, UniProt Q9Y5X5) | cell-free assay | – | – | – | Ki | 2220 nM |
| CCC(=O)N(C)c1ccc(Cl)c(Cl)c1 | Salmonella typhimurium | Ames test | TA1535 | 0.50 mg/plate, without S9 activation | – | revertants | 13 ± 4.6 revertants/plate |
| CC(=O)NC1C(OC2C(O)C(CO)OC(O)C2OC2OC(C)C(O)C(O)C2O)OC(CO)C(O)C1O (stereo not drawn) | slo | binding | – | – | – | Kd | 1300 nM |
| O=C(O)CCC(NP(=O)(O)OCCC[C@@H](NC(=O)CCC(NC(=O)CCCCCNC(=O)c1ccc([18F])cc1)C(=O)O)C(=O)O)C(=O)O (stereo partly drawn) | CWR22Rv1 tumour model | – | host not given, blood | intravenous, 1 h, tumour-bearing | – | tracer uptake | 0.17 %ID/g |
| COc1cc(C(=O)NCCOCCOCCOCCNC(=O)c2ccc([18F])nc2)ccc1NC(=O)C1NC(CC(C)(C)C)C(C#N)(c2ccc(Cl)cc2F)C1c1cccc(Cl)c1F (stereo not drawn) | SJSA-1 tumour model | – | host not given, brain | 1 h, tumour-bearing | – | tracer uptake | 0.45 %ID/g |
| Fc1ccccc1CCNCc1cccc(Cl)c1Cl | SLC6A4 | ligand displacement, radioligand | – | cell membranes | – | Ki | > 20000 nM |
| CCCCCc1cc(O)c2c(c1)OC(C)(C)C1CCC(C)=CC21 (single isomer, unassigned; (-)) | Cytochrome P450 1A2 (CYP1A2, Homo sapiens, UniProt P05177) | enzyme activity, inhibitor | human liver microsomes | pH 7.4, unbound, fu,inc corrected, added: phenacetin | – | Ki | 100 ± 56 nM |
| CC(=O)NC1C(OC2C(O)C(O)OC(CO)C2O)OC(CO)C(O)C1OC1OC(CO)C(O)C(OC2OC(CO)C(O)C(O)C2O)C1OC1OC(C)C(O)C(O)C1O (stereo not drawn) | slo | binding | – | – | – | Kd | 0.116 nM and 0.12 nM |
| C[C@]12CC[C@H](OC(=O)C3CC3)[C@@](C)(COC(=O)C3CC3)C1C[C@H](O)[C@@]1(C)Oc3cc(-c4cccnc4)oc(=O)c3[C@H](O)C21 (stereo partly drawn) | Halyomorpha halys Nan-Iav | radioligand competition binding | – | – | – | Ki | 0.01 nM |
| CN[C@](C)(C[18F])C(=O)O | SK-OV-3 tumour model | – | host not given, pancreas | 30 min, tumour-bearing | – | tracer uptake | 38 %ID/g |
| CCCCCn1cc(C(=O)c2cccc3c2CC(C)(C)C3)c2ccccc21 | CNR2 (Homo sapiens, UniProt P34972, L182I) | G protein activation, agonist, BRET | – | – | – | EC50 | 0.447 nM |
| CC(=O)NC1C(O)CC(OC2C(O)C(CO)OC(OC3C(O)C(CO)OC(O)C3NC(C)=O)C2O)(C(=O)O)OC1C(O)C(O)CO (stereo not drawn) | slo | binding | – | – | – | Kd | 1400 nM |
| CCCCCn1cc(C(=O)Cc2ccccc2OC)c2ccccc21 | CNR1 (Homo sapiens, UniProt P21554) | binding, SPR | – | – | – | Kd | 0.00654 nM |
| Cc1ccccc1N1C(=O)/C(=C/c2ccc(OCc3cccc(C(=O)O)c3)cc2)C(=O)NC1=S | PTPN2 (Homo sapiens, UniProt P17706) | enzyme activity, inhibitor | – | – | – | IC50 | 1520 nM |
| CCCCCc1cc(O)c2c(c1)OC(C)(C)c1cc(O)c(C)cc1-2 | Si (Rattus norvegicus, UniProt P23739) | enzyme activity, inhibitor | – | – | – | Ki | 123000 nM |
| CN(C)CC1CCCCC1(O)c1cccc(O)c1 (stereo not drawn) | Caco-2 TC7 monolayer | – | – | 50 µM, 3 h, apical pH 6.8, basolateral pH 7.4 | – | Papp A-to-B | 5.8 ± 1 ×10⁻⁶ cm/s |
| CCC[N+](C)(C)CCc1c[nH]c2cccc(O)c12 | SLC6A4 | ligand displacement, radioligand | – | – | – | Ki | 890 nM |
| CCC[C@H](C(=O)c1ccccc1)N1CCCC1 | Slc6a3 (Rattus norvegicus, UniProt P23977) | transporter uptake, inhibitor, radiometric | – | – | – | IC50 | 307 nM |
| CC1=CC(C)=[N+]2C1=Cc1ccc(CCC(=O)NCCOCCOCCOCCOCC(=O)N[C@H](C(=O)N3C[C@H](O)C[C@H]3C(=O)NCc3ccc(-c4scnc4C)cc3)C(C)(C)C)n1[B-]2(F)F | von Hippel-Lindau disease tumor suppressor, with elongin B/C (VHL, Homo sapiens, UniProt P40337) | binding, TR-FRET | – | 60 min, added: BODIPY FL VH032 | – | Kd | 3.22 nM |
| CCCCCn1cc(C(=O)c2ccc3ccccc3c2)c2ccccc21 | CNR2 (Homo sapiens, UniProt P34972) | β-arrestin recruitment, agonist, BRET | – | – | – | EC50 | 39.8 nM |
| CC(=O)Oc1cccc2[nH]cc(CC[N+](C)(C)C)c12 | HTR1A (Homo sapiens, UniProt P08908) | ligand displacement, radioligand | – | cell membranes | – | Ki | > 10000 nM |
| N=C(N)NCCC[C@@H]1NC(=O)[C@H](CCCCNC(=O)CC[C@H](NC(=O)CCOCCOCCOCCOCCNC(=O)CC[C@H](NC(=O)CN2CCN(CC(=O)O)CCN(CC(=O)O)CCN(CC(=O)O)CC2)C(=O)NCCOCCOCCOCCOCCC(=O)N[C@@H](CCC(=O)NCCCC[C@@H]2NC(=O)[C@@H](Cc3ccccc3)NC(=O)[C@H](CC(=O)O)NC(=O)CNC(=O)[C@H](CCCNC(=N)N)NC2=O)C(=O)NCCCC[C@@H]2NC(=O)[C@@H](Cc3ccccc3)NC(=O)[C@H](CC(=O)O)NC(=O)CNC(=O)[C@H](CCCNC(=N)N)NC2=O)C(=O)NCCCC[C@@H]2NC(=O)[C@@H](Cc3ccccc3)NC(=O)[C@H](CC(=O)O)NC(=O)CNC(=O)[C@H](CCCNC(=N)N)NC2=O)NC(=O)[C@@H](Cc2ccccc2)NC(=O)[C@H](CC(=O)O)NC(=O)CNC1=O [indium-111 labelled] | – | – | female athymic nude mice, eyes | intravenous, 3 µCi, 4 h, U-87 MG glioma xenograft | – | tissue uptake | 0.78 ± 0.31 %ID/g |

Excerpt of the above:
| Structure (SMILES) | tested on | assay | system | setting | scale | quantity | value |
| --- | --- | --- | --- | --- | --- | --- | --- |
| COc1cc(C(=O)NCCOCCOCCOCCNC(=O)c2ccc([18F])nc2)ccc1NC(=O)C1NC(CC(C)(C)C)C(C#N)(c2ccc(Cl)cc2F)C1c1cccc(Cl)c1F (stereo not drawn) | SJSA-1 tumour model | – | host not given, brain | 1 h, tumour-bearing | – | tracer uptake | 0.45 %ID/g |
| CC(=O)Oc1cccc2[nH]cc(CC[N+](C)(C)C)c12 | HTR1A (Homo sapiens, UniProt P08908) | ligand displacement, radioligand | – | cell membranes | – | Ki | > 10000 nM |
| CC1=CC(C)=[N+]2C1=Cc1ccc(CCC(=O)NCCOCCOCCOCCOCC(=O)N[C@H](C(=O)N3C[C@H](O)C[C@H]3C(=O)NCc3ccc(-c4scnc4C)cc3)C(C)(C)C)n1[B-]2(F)F | von Hippel-Lindau disease tumor suppressor, with elongin B/C (VHL, Homo sapiens, UniProt P40337) | binding, TR-FRET | – | 60 min, added: BODIPY FL VH032 | – | Kd | 3.22 nM |
| CC(=O)NC1C(OC2C(O)C(CO)OC(O)C2OC2OC(C)C(O)C(O)C2O)OC(CO)C(O)C1O (stereo not drawn) | slo | binding | – | – | – | Kd | 1300 nM |
